Results from different studies.
Parts stem from different laboratories: compare values within a part only. Positions count from the first letter of the parent shown.

Set 1
Target: Sal-like protein 4, full length isoform B (SALL4, Homo sapiens, UniProt Q9UJQ4-2, residues 1-616)
Method: universal PBM
Form: double-stranded DNA, one strand shown
Matrix: in vitro
Concentration: not given
Notes: 8-mer, flanks averaged, mean of replicates
Reading: higher = stronger binding
Residues (chain): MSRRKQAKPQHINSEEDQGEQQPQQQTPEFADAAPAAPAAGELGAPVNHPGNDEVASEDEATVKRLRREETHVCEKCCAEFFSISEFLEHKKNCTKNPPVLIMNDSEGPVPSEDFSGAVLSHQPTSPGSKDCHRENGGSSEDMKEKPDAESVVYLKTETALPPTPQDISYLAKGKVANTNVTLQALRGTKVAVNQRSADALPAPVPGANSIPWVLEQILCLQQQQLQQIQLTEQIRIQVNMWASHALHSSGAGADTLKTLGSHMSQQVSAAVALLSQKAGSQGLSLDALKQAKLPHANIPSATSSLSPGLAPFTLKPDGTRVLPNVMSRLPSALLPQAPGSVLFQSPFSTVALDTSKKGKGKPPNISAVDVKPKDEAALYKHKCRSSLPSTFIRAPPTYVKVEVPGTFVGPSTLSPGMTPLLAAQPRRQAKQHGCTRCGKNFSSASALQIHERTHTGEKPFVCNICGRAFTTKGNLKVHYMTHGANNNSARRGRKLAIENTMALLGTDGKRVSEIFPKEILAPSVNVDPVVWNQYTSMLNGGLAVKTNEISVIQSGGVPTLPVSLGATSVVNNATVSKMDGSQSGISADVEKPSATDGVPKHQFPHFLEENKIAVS
| Oligonucleotide | E-score |
| --- | --- |
| CAGAAATG | 0.098 |
| AGATTATC | 0.187 |
| ACAGTATG | 0.135 |
| GGGCAGGA | -0.147 |
| CTTATTCC | 0.155 |
| AACATGAA | 0.227 |
| TGTGTGAA | 0.0563 |
| GTTGAGCA | -0.0493 |
| ACTCACGA | -0.0445 |
| ACCGCAAA | -0.00773 |
| AGGGTAGG | -0.214 |
| ACATGACT | -0.11 |
| AGATAGAG | 0.0799 |
| GACTATGA | 0.185 |
| CCAATCAC | -0.0858 |
| CGCCCGCA | -0.276 |
| CCTGGCCG | -0.257 |
| CGGGCAGA | -0.214 |
| ATACGTCC | 0.122 |
| TCTATTCA | 0.268 |
| ACTTTGGA | 0.195 |
| AGCTGATA | 0.211 |
| ATTCCGCG | -0.227 |
| ATGGGGTA | 0.0468 |
| TAATCACA | 0.234 |

Set 2
Target: XBP1, bZIP domain (human)
Method: DHFR protein complementation
Matrix: yeast
Notes: single substitutions, most at no-binding floor
Baseline: wild-type JUN-FOS pair
Reading: higher = stronger binding
Starting sequence: JUN, bZIP domain (human); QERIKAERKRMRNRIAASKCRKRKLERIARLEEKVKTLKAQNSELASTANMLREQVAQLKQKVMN; partner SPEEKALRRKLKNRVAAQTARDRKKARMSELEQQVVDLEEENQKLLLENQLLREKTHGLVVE
| Substitution | binding fitness [natural log] |
| --- | --- |
| A40F | -1.16 |
| I28P | -1.31 |
| R53I | -1.64 |
| R30M | -0.276 |
| E44Y | -1.24 |
| M51G | -1.14 |
| A46T | -0.552 |
| A46E | -0.63 |
| L52E | -1.41 |
| L31K | -1.46 |
| A57Q | -0.792 |
| A46R | -0.168 |
| A29F | -1.32 |
| V56C | -0.697 |

Set 3
Target: CCNE2, cyclin fold, Cln2 fusion (human)
Method: yeast growth competition, sequencing
Matrix: yeast
Notes: strong parent motif
Baseline: not given
Reading: higher = stronger binding
Starting sequence: CDKN1A docking peptide (human); SKACRRLFGPVDS
| Substitution | normalised enrichment score |
| --- | --- |
| R6F | 0.962 |
| C4E | -0.0186 |
| D12H | 2.94 |
| R6I | 2.22 |
| V11F | 3.95 |
| S13A | 4.16 |
| R5A L7A | 0.161 |
| R5N | 0.703 |
| L7W | 0.768 |
| D12Y | 2.68 |
| F8G | 0.382 |
| P10V | 2.92 |
| P10H | 2.52 |
| P10F | 1.95 |
| C4T | 1.25 |
| A3I | 1.84 |
| R6W | 1.12 |
| C4F | 0.547 |
| F8C | 0.203 |

Set 4
Target: ABI1, truncated, D143A, DHFR fusion (Arabidopsis thaliana)
Method: DHFR PCA, deep sequencing
Matrix: yeast
Notes: methotrexate growth selection, single substitutions
Added: (+)-ABA 200 µM
Baseline: wild-type fitted maximum
Reading: higher = stronger binding
Starting sequence: PYL1, truncated, DHFR fusion (Arabidopsis thaliana); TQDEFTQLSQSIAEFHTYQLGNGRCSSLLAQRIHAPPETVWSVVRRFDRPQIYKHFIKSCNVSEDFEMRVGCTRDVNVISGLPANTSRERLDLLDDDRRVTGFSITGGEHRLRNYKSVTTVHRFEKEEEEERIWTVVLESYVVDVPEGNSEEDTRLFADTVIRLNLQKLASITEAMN; partner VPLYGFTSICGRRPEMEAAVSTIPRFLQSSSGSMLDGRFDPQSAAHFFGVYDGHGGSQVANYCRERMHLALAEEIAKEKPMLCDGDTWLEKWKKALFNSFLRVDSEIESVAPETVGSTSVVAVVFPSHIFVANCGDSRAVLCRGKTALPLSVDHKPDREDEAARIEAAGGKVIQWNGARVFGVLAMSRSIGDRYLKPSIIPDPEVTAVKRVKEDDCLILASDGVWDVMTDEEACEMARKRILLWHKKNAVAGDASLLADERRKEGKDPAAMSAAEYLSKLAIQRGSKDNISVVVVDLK
| Substitution | relative binding score |
| --- | --- |
| S26Q | 92.3% |
| F66Q | 101% |
| L29F | 55% |
| E14S | 92.4% |
| Y18S | 87.8% |
| D3V | 96.4% |
| K126T | 110% |
| V136E | 50.8% |
| I12Q | 63.4% |
| L166P | 25.9% |
| R32L | 90% |
| E67W | 91.9% |
| R132K | 114% |
| N114T | 34.2% |
| R74Y | -0.346% |
| S150E | 74.4% |

Set 5
Target: Histone acetyltransferase KAT6A, winged helix 2, GST fusion (KAT6A, Homo sapiens, UniProt Q92794, residues 85-181)
Method: protein binding microarray
Form: double-stranded DNA, one strand shown
Matrix: in vitro
Concentration: not given
Notes: 8-mer, flanks averaged, mean of 2 arrays, mostly near background
Baseline: not given
Reading: higher = stronger binding
Residues (chain): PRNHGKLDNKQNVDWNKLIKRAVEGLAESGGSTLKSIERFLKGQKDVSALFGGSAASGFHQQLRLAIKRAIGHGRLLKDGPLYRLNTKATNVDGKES
| Oligonucleotide | E-score |
| --- | --- |
| ATAAAGCC | -0.231 |
| ACTCCACG | -0.179 |
| ACTTAAAT | -0.0837 |
| TAACTGGA | -0.0512 |
| GTCAAAAC | 0.118 |
| CCCTCCCC | 0.198 |
| CCGGGTTA | -0.0291 |
| CGTGACAA | -0.0788 |
| CAGCGGGG | 0.257 |
| GATGTTAA | -0.0385 |
| TAACAACA | 0.0424 |
| GACGGACA | 0.0576 |
| CCTTTTAC | -0.004 |
| AAAAAGTC | -0.0105 |
| CCTGGTGA | 0.103 |
| ATCATGGC | -0.0436 |
| GATCCGAA | 0.0467 |
| AGGTCCCA | -0.0369 |
| CGGCTTTC | 0.152 |
| GACCTATC | -0.0214 |

Set 6
Target: RNA binding protein fox-1 homolog 2, RRM domain, GST-SBP tag (RBFOX2, Homo sapiens, UniProt O43251-10, residues 100-194)
Method: RNA Bind-n-Seq
Form: RNA
Matrix: in vitro
Concentration: 365 nM
Notes: natural RNA segment, single round, ends assumed
Baseline: no-protein control
Reading: higher = stronger binding
Residues (chain): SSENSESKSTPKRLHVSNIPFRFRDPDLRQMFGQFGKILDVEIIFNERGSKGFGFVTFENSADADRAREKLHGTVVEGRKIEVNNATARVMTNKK
| Oligonucleotide | RBNS enrichment (R) |
| --- | --- |
| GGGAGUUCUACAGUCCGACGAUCUUCAGGUUGGUGGAAAAUGUCAGUGGUGUAGUGUUGAGGACCUCACUAUUUUUUUUUUUAAAUCAUUUAUCCUAGAGAAGGACUCUGAUCCUUGCUUUCCUAGGUAAAUUUGGAAUUCUCGGGUGCCAA | 1 |
| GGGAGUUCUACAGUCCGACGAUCAGUCUGCACACCUACUCUGCCUGUGGAAGCAGCACCUGGGCCUCCUGCCUGCUUUCCUCAAGACGAGAGAGACCCCAGACUGUGUGUGGUUCAUUAGAGCAGUCUGGCCAUGGAAUUCUCGGGUGCCAA | 0.402 |
| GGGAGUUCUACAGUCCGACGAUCCUAUCAGGUCUACGACAGCAUUUUGAAAAACUACAAGACUGGUCCAGUACCCUUCAACCAUGCUGUGAUCGGUGCAAGUCAAGAACUCUUAACUGGAAGAAAUUGUAUUGUGGAAUUCUCGGGUGCCAA | 1.42 |
| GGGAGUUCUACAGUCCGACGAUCAGCUUCUAAUGUUAUGAUCUAGCUAGAUUUUUAUUUAAAAUAUGAAAAACUGCUUUUCCCAAGACGUUUUUUAAAAGGAAAAAAAGCUACAAUUUUAAUAUUUGACAUAUUGGAAUUCUCGGGUGCCAA | 0.521 |
| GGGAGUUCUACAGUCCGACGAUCCAGUAGCAUGGCUAUUGCUGAGGUUAUUUUACCUAAUAAUUAGAACUUUGUAUUUACAAAGCAAGUAGAGGUCUUAAAUUUGCUUCAAGAAGCAGUUGCUCCACUGGAAUUGGAAUUCUCGGGUGCCAA | 0.641 |
| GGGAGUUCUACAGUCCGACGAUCCUGCUUGACAAUAAUUCCCUUCCCCCAAAAUGAGCAGUGUAGGCAAGAAAAUUCUAGCCAUGACCAGUGGUCCCUCAGAGCUAACCAUCUCUGAGGCAUUGUGGUGGUCCUGGAAUUCUCGGGUGCCAA | 0.54 |
| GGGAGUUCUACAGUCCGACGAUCCCGUUGUGGAAAUUAUUGGAAUUAACUGAGCCAAAGUGAUUAUGCAUUCUUCAUCUAUUUUAGUUAGCACUUUGUAUCGUUAUAUACAGUUUACAAUACAUGUAUAACUUUGGAAUUCUCGGGUGCCAA | 1.11 |
| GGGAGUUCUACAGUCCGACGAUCGAAUUUGUCUUGUCAUCUUUUAGAGUAAACUAAAAAUUGUAUAGUGUCUGCAAACACUACCCUACCUAAAUCCAGCCUCUAAGGUCUCACUGGUGUGGAAUUAAACUCUUUGGAAUUCUCGGGUGCCAA | 0.439 |
| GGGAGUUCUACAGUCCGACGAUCCAAGUGAGCAGAUGGGACAAGUUAGUCUUUUCUCCCUAGAAACAAAGGGGAUGCCCAGUGGUUUCCCUUUGCUUCCCAACCUAAAAUUUCAAGUUUAAUAAAAUAGCAAUUGGAAUUCUCGGGUGCCAA | 0.285 |
| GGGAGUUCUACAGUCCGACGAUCCUGUUGCCUGUGGAGUCUCUGCUGAAAUGAAUCAGGAUUCGAGCUCUAGGAUGAGACAGAAAAUGAAAGCAUGUUGUUUGCCAGGACACUGUGGGUUUAUAUUGAUGUGUUGGAAUUCUCGGGUGCCAA | 2.83 |
| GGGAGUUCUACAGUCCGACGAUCUCUGAGAUUCUGGUCCCUGGAAAUCCCUUUCUGCUAGUGGUGAGCAUGUAAGUGUUAAGUUUUUAAUCUGGGAGCAGGGCAUAGGAAGAAAAUGUCAGUAGUGCUAAUGCUGGAAUUCUCGGGUGCCAA | 5.73 |
| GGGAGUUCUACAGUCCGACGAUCAGGCACAAUCACUGUUUCAGAUUUAAAAUUAUUAGUGUGUUUGUUUGGUCCAGAAACUGAGACAAUCACAUGACAGUCACCACGAGGAGAGAAAAUUUAAAAAAUAAAAAUGGAAUUCUCGGGUGCCAA | 0.632 |

For quick reference, copied from above (set 4):
| Substitution | relative binding score |
| --- | --- |
| R32L | 90% |
| F66Q | 101% |
| E67W | 91.9% |
| R74Y | -0.346% |
| L166P | 25.9% |
| D3V | 96.4% |
